Measurements gathered from unrelated publications.
Every numbered part comes from another study and shows a few of its results, in no order. Substitutions count along the parent as printed.

Block 1
Target: Interferon regulatory factor 5, full length, phosphomimetic (IRF5, Homo sapiens, UniProt Q13568-2, residues 1-514, S451D/S453D/S456D/S462D)
Technique: protein-binding microarray
Molecule type: double-stranded DNA, one strand shown
Matrix: in vitro
Concentration: 940 nM top
Notes: 60-bp whole probe
With: salmon DNA 0.4 mg/ml
Relative to: random background probes
Reading: higher = stronger binding
Endpoint: fitted relative affinity
Constant ends, left off below: GCCTAGCAC … GTCTTGATTCGCTTGACGCTGCTG
TTAGGCTCCCTTTTCCTTTAGTGCTAG: 0.251 z-score
TTAGAACTGGGGAATCGATTAGTGCTA: 0.206 z-score
TCAACTTTGGAGATGACACTGTGCTAG: -0.189 z-score
GACGGTTTCCTCATCCTGACGTGCTAG: 0.88 z-score
TCAGATTTCAGTATCGATTAGTGCTAG: 6.08 z-score
GACGCTATCGGGTTTCGAGACGTGCTA: 2.05 z-score
TTAGCACTGGACACTGGGTTAGTGCTA: -0.686 z-score
TTAGGTCCCGGACTGGGTTAGTGCTAG: -0.654 z-score

Block 2
Target: CCNB2, cyclin fold, Cln2 fusion (human)
Technique: yeast growth competition, sequencing
Matrix: yeast
Notes: strong parent motif
Relative to: not given
Reading: higher = stronger binding
Endpoint: normalised enrichment score
Starting sequence: viral docking peptide; TSVRRALFTGGSD
TRVRRALFTGGSD [S2R]: 1.12
TVVRRALFTGGSD [S2V]: 0.601
TSERRALFTGGSD [V3E]: -0.0237

Block 3
Target: Ras GTPase-activating protein-binding protein 1, C-terminal RGG region (G3BP1, Homo sapiens, UniProt Q13283)
Chain of UniProt Q13283 (whole entry, looked up): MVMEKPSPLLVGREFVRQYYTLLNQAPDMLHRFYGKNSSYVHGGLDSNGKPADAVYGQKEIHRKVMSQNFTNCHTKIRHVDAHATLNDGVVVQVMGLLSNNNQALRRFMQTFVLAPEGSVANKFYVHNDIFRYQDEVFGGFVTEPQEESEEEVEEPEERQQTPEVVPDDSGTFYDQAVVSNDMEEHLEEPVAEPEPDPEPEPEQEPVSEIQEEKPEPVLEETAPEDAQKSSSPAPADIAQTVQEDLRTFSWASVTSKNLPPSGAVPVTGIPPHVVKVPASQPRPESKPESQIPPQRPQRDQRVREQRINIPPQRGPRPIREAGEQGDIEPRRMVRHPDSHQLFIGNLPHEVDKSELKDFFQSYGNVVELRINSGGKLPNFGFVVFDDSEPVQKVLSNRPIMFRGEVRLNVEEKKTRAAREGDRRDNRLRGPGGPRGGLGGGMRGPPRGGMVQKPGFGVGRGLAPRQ
Technique: RNA Bind-n-Seq
Molecule type: RNA
Matrix: in vitro
Concentration: 1 µM
Notes: whole 134-nt RNA, ends assumed
With: 150 mM KCl
Relative to: input library
Reading: higher = stronger binding
Endpoint: log2 enrichment
Constant ends, left off below: GGGAGUUCUACAGUCCGACGAUC … UGGAAUUCUCGGGUGUCAAGG
UCCUGUGCUACACAUCGUAUGUACCGAAUCGUGUGUGUGUGUGUGUGUGUGUGUGUGUGAAAGUAUUAUGUUACGCCGUUCGGAUCUGCA: 1.41
UCUGGACAUGCAGGUGGACCAGUCAGUGCCAGAGUAAGUUGUUGUUUUCUUAAAAGAAAAAAAAAAAUGUAAAAUCAUCUAACCCUAACC: -0.73
CAAGUCCUGUGCUACACAUCGUAUGUACCGAAUCGGGUUUGGGAGGGAAAAAGGGAAAGUAUUAUGUUACGCCGUUCGGAUCUGCACUUC: 2.05
UAACUUUAGAGGAGGAUCUGAUGGAUAUGGCAGUGGACGUGGAUUUGGGGAUGCCUAUAAUGGGUAUGGAGGAGGACCUGGAGGUGGCAA: -0.263
CAAGUCCUGUGCUACACAUCGUAUGUACCGAAUCGGUUUUUUUGGUUUGGUUUGGAAAGUAUUAUGUUACGCCGUUCGGAUCUGCACUUC: -1.81
UUACACAAACCUGCAGGUGAAGACAGGCCAGCGGACCCUCAUCAACCCCAAGCCCUGUGGCCAGUUUUGCUGCUGUGAAGUGCUGGGCUG: -0.943
ACCAUUCAGGUGGGCAUCUUUGGGAAGUGGGGCAAGGGGGGGAUAGGGAGGGGGGUAACACUUUGGGAACAGGUGGUCCCAGGUCGUUUC: -1.14
UAACUUUAGAGGAGGAUCUGAUGGAUAUGGCAGUGGACGUCGAUUUGGGGAUGGCUAUAAUGGGUAUGGAGGAGGACCUGGAGGUGGCAA: -1.1

Single results of other studies
YLAKLFLDH
binding (HLA class I histocompatibility antigen, A alpha chain, allele A*80:01 (Homo sapiens, UniProt P04439); peptide-MHC binding; peptide; concentration not given): active

For quick reference, copied from above (block 1):
GACGGTTTCCTCATCCTGACGTGCTAG: 0.88 z-score
